Results of several laboratories.
Parts stem from different laboratories: compare values within a part only.
Sequence of UniProt P42336 (whole entry, unmodified, looked up): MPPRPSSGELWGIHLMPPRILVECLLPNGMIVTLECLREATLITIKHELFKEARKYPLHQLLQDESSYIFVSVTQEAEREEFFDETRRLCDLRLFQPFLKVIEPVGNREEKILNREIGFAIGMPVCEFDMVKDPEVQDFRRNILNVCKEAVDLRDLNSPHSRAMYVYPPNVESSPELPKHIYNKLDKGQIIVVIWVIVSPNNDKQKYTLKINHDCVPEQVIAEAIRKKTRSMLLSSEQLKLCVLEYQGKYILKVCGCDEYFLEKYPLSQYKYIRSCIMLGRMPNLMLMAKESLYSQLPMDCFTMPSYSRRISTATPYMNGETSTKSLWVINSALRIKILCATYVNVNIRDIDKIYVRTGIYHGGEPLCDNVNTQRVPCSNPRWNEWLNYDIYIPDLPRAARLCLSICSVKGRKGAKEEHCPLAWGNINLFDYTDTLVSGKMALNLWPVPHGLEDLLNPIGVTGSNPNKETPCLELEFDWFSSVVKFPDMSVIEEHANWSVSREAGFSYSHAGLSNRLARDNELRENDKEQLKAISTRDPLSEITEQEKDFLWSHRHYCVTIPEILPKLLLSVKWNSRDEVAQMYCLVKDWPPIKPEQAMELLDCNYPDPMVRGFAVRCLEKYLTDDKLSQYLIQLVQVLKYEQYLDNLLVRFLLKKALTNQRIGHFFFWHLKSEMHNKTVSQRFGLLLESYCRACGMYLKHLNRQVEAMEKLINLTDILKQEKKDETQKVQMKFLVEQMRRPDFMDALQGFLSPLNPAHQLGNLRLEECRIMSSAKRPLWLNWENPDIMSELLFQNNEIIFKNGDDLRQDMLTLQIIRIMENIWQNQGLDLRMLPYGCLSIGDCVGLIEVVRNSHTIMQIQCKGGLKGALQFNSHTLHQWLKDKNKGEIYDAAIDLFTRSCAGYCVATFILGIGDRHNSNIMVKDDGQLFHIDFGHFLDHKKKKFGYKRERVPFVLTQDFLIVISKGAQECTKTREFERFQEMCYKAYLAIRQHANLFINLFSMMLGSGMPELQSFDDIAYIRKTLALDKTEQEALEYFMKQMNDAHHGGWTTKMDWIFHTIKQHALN
Sequence of UniProt P28482 (whole entry, looked up): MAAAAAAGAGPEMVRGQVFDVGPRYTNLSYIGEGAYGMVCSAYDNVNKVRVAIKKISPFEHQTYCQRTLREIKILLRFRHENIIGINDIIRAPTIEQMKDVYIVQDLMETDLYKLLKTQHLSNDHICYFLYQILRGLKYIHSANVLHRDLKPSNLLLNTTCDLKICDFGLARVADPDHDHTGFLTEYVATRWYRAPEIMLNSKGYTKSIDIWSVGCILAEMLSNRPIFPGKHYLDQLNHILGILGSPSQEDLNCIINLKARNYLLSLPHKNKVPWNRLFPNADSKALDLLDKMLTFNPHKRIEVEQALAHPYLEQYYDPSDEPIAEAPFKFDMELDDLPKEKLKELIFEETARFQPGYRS
Sequence of UniProt P15056 (whole entry, unmodified, looked up): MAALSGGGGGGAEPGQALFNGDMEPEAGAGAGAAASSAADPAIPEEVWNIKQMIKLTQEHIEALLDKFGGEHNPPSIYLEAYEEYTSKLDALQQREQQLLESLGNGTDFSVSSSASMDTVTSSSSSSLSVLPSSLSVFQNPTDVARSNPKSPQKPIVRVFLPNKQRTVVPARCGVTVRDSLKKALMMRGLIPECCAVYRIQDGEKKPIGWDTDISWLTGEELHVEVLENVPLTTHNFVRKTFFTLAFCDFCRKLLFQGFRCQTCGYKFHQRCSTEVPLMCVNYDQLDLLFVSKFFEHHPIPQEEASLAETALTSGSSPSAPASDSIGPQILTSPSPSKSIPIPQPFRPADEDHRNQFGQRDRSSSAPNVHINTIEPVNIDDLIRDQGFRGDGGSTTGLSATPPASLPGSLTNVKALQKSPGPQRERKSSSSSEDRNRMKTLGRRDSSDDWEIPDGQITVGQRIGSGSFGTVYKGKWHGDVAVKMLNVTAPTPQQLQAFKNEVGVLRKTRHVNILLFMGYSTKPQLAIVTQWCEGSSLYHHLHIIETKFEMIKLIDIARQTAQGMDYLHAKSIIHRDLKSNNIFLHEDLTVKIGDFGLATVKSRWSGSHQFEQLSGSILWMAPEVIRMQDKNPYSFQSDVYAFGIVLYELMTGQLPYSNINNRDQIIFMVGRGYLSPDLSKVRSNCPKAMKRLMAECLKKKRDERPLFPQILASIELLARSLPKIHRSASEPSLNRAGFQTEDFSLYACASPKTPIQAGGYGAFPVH
Sequence of UniProt Q16832 (whole entry, looked up): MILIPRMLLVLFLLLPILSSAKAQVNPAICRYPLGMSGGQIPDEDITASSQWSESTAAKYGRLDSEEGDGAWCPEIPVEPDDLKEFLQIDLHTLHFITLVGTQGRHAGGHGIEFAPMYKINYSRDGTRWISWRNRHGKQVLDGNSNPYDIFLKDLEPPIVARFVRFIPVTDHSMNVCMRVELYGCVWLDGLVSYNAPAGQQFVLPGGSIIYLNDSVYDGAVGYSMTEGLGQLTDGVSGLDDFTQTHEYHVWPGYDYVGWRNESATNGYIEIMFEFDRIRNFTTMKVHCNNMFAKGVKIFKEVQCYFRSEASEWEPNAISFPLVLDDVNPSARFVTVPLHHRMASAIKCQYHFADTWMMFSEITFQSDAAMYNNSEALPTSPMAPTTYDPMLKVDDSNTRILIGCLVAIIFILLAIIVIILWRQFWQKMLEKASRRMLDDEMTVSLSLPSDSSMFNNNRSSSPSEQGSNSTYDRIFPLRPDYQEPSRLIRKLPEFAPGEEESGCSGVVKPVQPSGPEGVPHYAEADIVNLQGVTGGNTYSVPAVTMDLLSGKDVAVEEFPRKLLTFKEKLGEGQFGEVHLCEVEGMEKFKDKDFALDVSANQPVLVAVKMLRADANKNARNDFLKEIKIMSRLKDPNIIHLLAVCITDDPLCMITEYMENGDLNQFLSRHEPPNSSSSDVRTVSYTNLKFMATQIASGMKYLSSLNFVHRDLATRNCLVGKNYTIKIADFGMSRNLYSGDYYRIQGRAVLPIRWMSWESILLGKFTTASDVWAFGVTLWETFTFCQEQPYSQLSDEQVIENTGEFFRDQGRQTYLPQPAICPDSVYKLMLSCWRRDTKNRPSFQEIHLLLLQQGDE
Sequence of UniProt P54753 (whole entry, looked up): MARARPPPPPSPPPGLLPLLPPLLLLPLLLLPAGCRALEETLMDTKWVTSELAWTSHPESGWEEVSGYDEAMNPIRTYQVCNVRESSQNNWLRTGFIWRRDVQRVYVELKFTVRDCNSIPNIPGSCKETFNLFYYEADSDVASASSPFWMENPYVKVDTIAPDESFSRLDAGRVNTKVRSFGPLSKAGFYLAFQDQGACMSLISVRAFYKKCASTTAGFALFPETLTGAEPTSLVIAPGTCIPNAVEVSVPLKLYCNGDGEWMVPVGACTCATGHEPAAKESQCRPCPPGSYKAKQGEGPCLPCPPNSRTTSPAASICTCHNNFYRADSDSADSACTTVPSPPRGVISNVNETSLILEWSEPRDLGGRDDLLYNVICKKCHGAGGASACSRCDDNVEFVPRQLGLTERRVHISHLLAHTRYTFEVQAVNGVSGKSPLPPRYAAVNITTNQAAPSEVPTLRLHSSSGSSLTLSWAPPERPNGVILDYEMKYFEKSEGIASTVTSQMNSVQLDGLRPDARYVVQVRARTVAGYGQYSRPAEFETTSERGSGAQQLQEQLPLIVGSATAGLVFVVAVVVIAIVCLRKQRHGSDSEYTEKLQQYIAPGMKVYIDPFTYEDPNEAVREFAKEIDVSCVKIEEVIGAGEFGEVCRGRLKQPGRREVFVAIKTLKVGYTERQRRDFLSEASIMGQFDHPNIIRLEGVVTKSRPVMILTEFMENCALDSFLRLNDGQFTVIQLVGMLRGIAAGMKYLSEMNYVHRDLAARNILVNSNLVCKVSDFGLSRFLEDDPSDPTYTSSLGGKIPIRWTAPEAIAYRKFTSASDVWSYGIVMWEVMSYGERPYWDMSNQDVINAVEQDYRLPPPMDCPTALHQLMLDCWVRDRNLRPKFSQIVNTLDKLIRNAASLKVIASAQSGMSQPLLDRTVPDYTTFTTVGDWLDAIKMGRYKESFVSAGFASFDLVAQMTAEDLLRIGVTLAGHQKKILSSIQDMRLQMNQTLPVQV
Sequence of UniProt P51956 (whole entry, looked up): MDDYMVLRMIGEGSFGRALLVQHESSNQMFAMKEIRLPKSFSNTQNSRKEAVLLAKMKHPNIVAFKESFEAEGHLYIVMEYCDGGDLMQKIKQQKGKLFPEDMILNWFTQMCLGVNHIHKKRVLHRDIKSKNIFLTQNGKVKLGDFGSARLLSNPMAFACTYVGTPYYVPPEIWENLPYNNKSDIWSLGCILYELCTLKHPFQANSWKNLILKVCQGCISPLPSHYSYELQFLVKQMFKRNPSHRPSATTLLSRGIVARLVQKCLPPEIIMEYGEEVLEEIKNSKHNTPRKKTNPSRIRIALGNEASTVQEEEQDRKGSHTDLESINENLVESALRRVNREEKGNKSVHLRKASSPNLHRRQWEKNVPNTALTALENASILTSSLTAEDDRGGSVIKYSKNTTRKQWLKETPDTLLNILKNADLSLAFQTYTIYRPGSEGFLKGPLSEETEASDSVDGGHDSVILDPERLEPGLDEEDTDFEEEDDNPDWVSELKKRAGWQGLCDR
Sequence of UniProt P06493 (whole entry, looked up): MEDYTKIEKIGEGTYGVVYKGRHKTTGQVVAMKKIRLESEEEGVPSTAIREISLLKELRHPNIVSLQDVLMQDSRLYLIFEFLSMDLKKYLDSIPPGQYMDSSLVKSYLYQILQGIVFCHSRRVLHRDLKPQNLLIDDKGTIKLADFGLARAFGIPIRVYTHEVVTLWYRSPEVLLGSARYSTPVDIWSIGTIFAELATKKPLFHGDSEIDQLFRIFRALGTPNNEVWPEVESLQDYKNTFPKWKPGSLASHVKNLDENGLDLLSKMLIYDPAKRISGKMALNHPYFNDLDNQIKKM

Block 1 — effect on: enzyme activity; mode: inhibitor; tested at: 1 µM
Structure (SMILES): CO[C@@H]1[C@H](N(C)C(=O)c2ccccc2)C[C@H]2O[C@]1(C)n1c3ccccc3c3c4c(c5c6ccccc6n2c5c31)C(=O)NC4
PIK3CA (Homo sapiens, UniProt P42336, H1047L) — inhibition: 8%.
It gave 3% for inhibition (MAP3K15 (Homo sapiens, UniProt Q6ZN16)).
PRKG1 (Homo sapiens, UniProt Q13976) — inhibition: 63%.
For PIK3CA (Homo sapiens, UniProt P42336, Q546K): inhibition read 16%.
For Tyrosine-protein kinase ABL1, non-phosphorylated (ABL1, Homo sapiens, UniProt P00519, F317L): inhibition read 0%.
For MAPK1 (Homo sapiens, UniProt P28482): inhibition read 0%.
The inhibition was 40% (TAOK3 (Homo sapiens, UniProt Q9H2K8)).
NEK2 (Homo sapiens, UniProt P51955) — inhibition: 3%.
It gave 12% for inhibition (Tyrosine-protein kinase ABL1, phosphorylated (ABL1, Homo sapiens, UniProt P00519, F317L)).
For PKN2 (Homo sapiens, UniProt Q16513): inhibition read 63%.
STK17A (Homo sapiens, UniProt Q9UEE5) — inhibition: 73%.
It gave 7% for inhibition (Tyrosine-protein kinase ABL1, phosphorylated (ABL1, Homo sapiens, UniProt P00519, Q252H)).

Block 2 — SMILES: Cc1nc2cc3nc(-c4cccs4)cnc3cc2n1C; effect on: enzyme activity; mode: inhibitor; tested at: 0.5 µM; baseline: control
CLK3 (Homo sapiens, UniProt P49761) — remaining activity: 114%.
The remaining activity was 81.4% (MARK2 (Homo sapiens, UniProt Q7KZI7)).
For CLK4 (Homo sapiens, UniProt Q9HAZ1): remaining activity read 79.2%.
It gave 110% for remaining activity (Cyclin-dependent kinase 9, with cyclin K (CDK9, Homo sapiens, UniProt P50750)).
It gave 102% for remaining activity (Cyclin-dependent kinase 1, with cyclin A (CDK1, Homo sapiens, UniProt P06493)).
MARK4 (Homo sapiens, UniProt Q96L34) — remaining activity: 105%.
It gave 102% for remaining activity (TXK (Homo sapiens, UniProt P42681)).
The remaining activity was 98.8% (PAK3 (Homo sapiens, UniProt O75914)).
CAMK4 (Homo sapiens, UniProt Q16566) — remaining activity: 94.7%.
It gave 108% for remaining activity (DDR2 (Homo sapiens, UniProt Q16832)).
It gave 77.4% for remaining activity (KDR (Homo sapiens, UniProt P35968)).
For PLK3 (Homo sapiens, UniProt Q9H4B4): remaining activity read 95.6%.
For MAP2K1 (Homo sapiens, UniProt Q02750): remaining activity read 89.7%.
ROCK1 (Homo sapiens, UniProt Q13464) — remaining activity: 97.8%.
The remaining activity was 100% (CDC42BPB (Homo sapiens, UniProt Q9Y5S2)).
It gave 110% for remaining activity (MAPK1 (Homo sapiens, UniProt P28482)).
For DCLK2 (Homo sapiens, UniProt Q8N568): remaining activity read 104%.
It gave 108% for remaining activity (NEK3 (Homo sapiens, UniProt P51956)).
RPS6KA4 (Homo sapiens, UniProt O75676) — remaining activity: 88.4%.
The remaining activity was 111% (MET (Homo sapiens, UniProt P08581)).
MAPK14 (Homo sapiens, UniProt Q16539) — remaining activity: 97.5%.
For AKT2 (Homo sapiens, UniProt P31751): remaining activity read 91.5%.
For PNCK (Homo sapiens, UniProt Q6P2M8): remaining activity read 102%.
GRK4 (Homo sapiens, UniProt P32298) — remaining activity: 104%.
For MINK1 (Homo sapiens, UniProt Q8N4C8): remaining activity read 98.9%.

Block 3 — technique: competition with immobilised ligand; tested at: 1 µM
SMILES: CCc1ccccc1C(=O)Nc1n[nH]c2c(C)c(F)c(C3C(C#N)=C(C)N(C)C(C)=C3C#N)cc12
STK17B (Homo sapiens, UniProt O94768); cell-free assay — remaining binding: 100%.
For EPHB6 (Homo sapiens, UniProt O15197); cell-free assay: remaining binding read 100%.
For BMPR1A (Homo sapiens, UniProt P36894); binding: remaining binding read 87%.
EPHB3 (Homo sapiens, UniProt P54753); cell-free assay — remaining binding: 57%.
For BRAF (Homo sapiens, UniProt P15056, V600E); cell-free assay: remaining binding read 100%.
The remaining binding was 100% (MAP3K5 (Homo sapiens, UniProt Q99683); cell-free assay).
The remaining binding was 100% (SRPK3 (Homo sapiens, UniProt Q9UPE1); cell-free assay).
BRAF (Homo sapiens, UniProt P15056); cell-free assay — remaining binding: 78%.
It gave 72% for remaining binding (PRPF4B (Homo sapiens, UniProt Q13523); cell-free assay).
TEC (Homo sapiens, UniProt P42680); binding — remaining binding: 91%.
The remaining binding was 100% (PIP5K1A (Homo sapiens, UniProt Q99755); cell-free assay).
The remaining binding was 100% (STK35 (Homo sapiens, UniProt Q8TDR2); cell-free assay).
PAK5 (Homo sapiens, UniProt Q9P286); cell-free assay — remaining binding: 100%.
It gave 100% for remaining binding (MAK (Homo sapiens, UniProt P20794); binding).
STK32C (Homo sapiens, UniProt Q86UX6); binding — remaining binding: 100%.
It gave 90% for remaining binding (CDK7 (Homo sapiens, UniProt P50613); cell-free assay).
It gave 89% for remaining binding (FLT3 (Homo sapiens, UniProt P36888, R834Q); cell-free assay).
For CDKL3 (Homo sapiens, UniProt Q8IVW4); binding: remaining binding read 87%.
It gave 100% for remaining binding (Tyrosine-protein kinase ABL1, non-phosphorylated (ABL1, Homo sapiens, UniProt P00519, T315I); cell-free assay).
EGFR (Homo sapiens, UniProt P00533, G719C); cell-free assay — remaining binding: 55%.
LATS1 (Homo sapiens, UniProt O95835); cell-free assay — remaining binding: 100%.
For PIK3CA (Homo sapiens, UniProt P42336, E545K); cell-free assay: remaining binding read 100%.
It gave 100% for remaining binding (PIK3CA (Homo sapiens, UniProt P42336, E545A); cell-free assay).
For MAP4K3 (Homo sapiens, UniProt Q8IVH8); cell-free assay: remaining binding read 100%.
The remaining binding was 11% (RET (Homo sapiens, UniProt P07949, V804M); cell-free assay).

Single results of other studies
Under “volume of distribution (Vz)”, O=C1CCC(N2Cc3cc(C4CCN(Cc5ccccc5)CC4)ccc3C2=O)C(=O)N1 (stereo not drawn) is recorded as 13.7 L/kg (ICR mouse, male, plasma; intravenous, 1.0 mg/kg).
